Assay results of several laboratories.
Each numbered part is a random draw from the data of one study; scales do not carry over between parts.

Set 1
Target: UBE2M UBC core domain (UniProt P61081)
Technique: yeast two-hybrid
Matrix: yeast
Setting: mostly zero background
Relative to: not given
Direction: higher = stronger interaction
B1: TRIM32 RING domain (UniProt Q13049); chain NLDALREVLECPICMESFTEEQLRPKLLHCGHTICRQCLEKLLASSINGVRCPFCSKITRITSLTQ
B2: SHPRH RING domain (UniProt Q149N8); chain KTSGGVNPEPCPICARQLGKQWAVLTCGHCFCNECISIIIEQYSVGSHRSSIKCAICRQTTSHKEISY
B3: TRIM74 RING domain (UniProt Q86UV6); chain SLLELEDWLQCPICLEVFKESLMLQCGHSYCKGCLVSLSYHLDTKVRCPMCWQVVDGSSSLP
B4: RNF11 RING domain (UniProt Q9Y3C5); chain RDGSEKKIRECVICMMDFVYGDPIRFLPCMHIYHLDCIDDWLMRSFTCPSCMEPVDAALLSS
B5: RFPL3 RING domain (UniProt O75679); chain MAALFQEASSCPVCSDYLEKPMSLECGCTVCLKCINSLQKEPHGEDLLCCCCSMVSQRNKIRP
B6: RMND5B RING domain (UniProt Q96G75); chain MKCWYHSVFACPILRQQTSDSNPPIKLICGHVISRDALNKLINGGKLKCPYCPMEQNPADGK
B7: RNF10 RING domain (UniProt Q8N5U6); chain VRICSHEVPSCPICLYPPTAAKITRCGHIFCWACILHYLSLSEKTWSKCPICYSSVHKKDLKS
Target sequence (chain): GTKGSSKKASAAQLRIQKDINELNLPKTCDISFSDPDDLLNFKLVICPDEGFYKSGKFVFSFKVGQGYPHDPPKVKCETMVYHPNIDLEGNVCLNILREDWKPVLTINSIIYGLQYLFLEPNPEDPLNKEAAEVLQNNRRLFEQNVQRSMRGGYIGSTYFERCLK
Molecule | lacZ reporter activity
B1 (TRIM32 RING domain) | 0
B2 (SHPRH RING domain) | 0
PLRRLQEEKLCKICMDRHIAVVFIPCGHLVTCKQCAEAVDRCPMCSAVIDFKQRVF (BIRC8 RING domain (UniProt Q96P09)) | 0
B3 (TRIM74 RING domain) | 0
B4 (RNF11 RING domain) | 0
EIKDYKARLTCPCCNMRKKDAVLTKCFHVFCFECVKTRYDTRQRKCPKCNAAFGANDFHR (RNF20 RING domain (UniProt Q5VTR2)) | 0
B5 (RFPL3 RING domain) | 0
B6 (RMND5B RING domain) | 0
B7 (RNF10 RING domain) | 0

Set 2
Target: Hepatocyte nuclear factor 3-beta, forkhead domain (FOXA2, Homo sapiens, UniProt Q9Y261, residues 142-269)
Technique: protein-binding microarray
Form: double-stranded DNA, one strand shown
Matrix: in vitro
Concentration: not given
Setting: k-mer, scored over probes, only values ≥0.25
Direction: higher = stronger binding
Target sequence (chain): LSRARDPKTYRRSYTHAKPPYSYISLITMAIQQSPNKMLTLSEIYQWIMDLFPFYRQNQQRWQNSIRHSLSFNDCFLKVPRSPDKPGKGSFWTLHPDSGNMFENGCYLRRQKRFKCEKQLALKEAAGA
Sequence | E-score
ACTAATAC | 0.273
CATTTTAC | 0.319
AGTCAACA | 0.371
ATGTTTGC | 0.27
ACATAATA | 0.382
TAACACAA | 0.354
ATCTTCAA | 0.266
TACAAAGA | 0.273
ATTTTACA | 0.25
ACTGTTTG | 0.287
ATAACGCA | 0.264
ACGATGTA | 0.301
ATCTATAA | 0.294
CGGTATAA | 0.258

Set 3
Target: Sal-like protein 4, full length isoform B (SALL4, Homo sapiens, UniProt Q9UJQ4-2, residues 1-616)
Technique: universal PBM
Form: double-stranded DNA, one strand shown
Matrix: in vitro
Concentration: not given
Setting: 8-mer, flanks averaged, mean of replicates
Direction: higher = stronger binding
Sequence | E-score
TCTGACAA | 0.101
GCGACATA | 0.113
ATATGGAC | 0.252
AAGACGGG | -0.28
AACTGCTG | -0.135
ACAGGGAA | -0.0968
CACGGAGC | -0.106
CAGGACTC | -0.306
GCGCCCTA | -0.221
CCCCCTGC | -0.217
AATAGTGT | 0.246
GGTCATTA | 0.1
AATCTACC | 0.127
AAGTAGGA | 0.0636
GTGGGCGA | -0.0567
GTTGTAAA | 0.147
ACGAAACT | 0.0736
TAATTGTA | 0.344
CACCCTGC | -0.108
GAGTCGTA | 0.0358
CTCCGAGA | -0.188
CGGATCTA | -0.0819
TCGCCACA | -0.0283
AATGTTGT | 0.183
ATTATGGG | 0.297

Set 4
Target: Centromere-binding protein 1, full length, N-terminal tag (CBF1, Saccharomyces cerevisiae, UniProt P17106, residues 1-351)
UniProt P17106, sequence (whole entry, looked up): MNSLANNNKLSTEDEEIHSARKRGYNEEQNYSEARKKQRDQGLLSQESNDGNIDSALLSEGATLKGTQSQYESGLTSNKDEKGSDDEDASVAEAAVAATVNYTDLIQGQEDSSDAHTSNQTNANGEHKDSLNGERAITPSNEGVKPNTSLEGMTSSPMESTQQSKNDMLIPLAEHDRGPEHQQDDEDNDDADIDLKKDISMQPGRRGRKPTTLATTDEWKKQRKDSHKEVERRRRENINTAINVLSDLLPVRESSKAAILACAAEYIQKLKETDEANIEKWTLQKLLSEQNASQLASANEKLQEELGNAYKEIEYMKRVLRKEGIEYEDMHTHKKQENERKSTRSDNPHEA
Technique: protein-binding microarray
Form: double-stranded DNA, one strand shown
Matrix: in vitro
Concentration: 0.8 µM
Setting: whole 60-bp probe, no competitor
Direction: higher = stronger binding
Sequence | fluorescence intensity
CTACTAATATTCTTTTTCGTCACCGTGTTTATATTCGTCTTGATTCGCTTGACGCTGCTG | 616 a.u.
GAAACAAAAAATGCTCACCTGACCTTATTCACCTAGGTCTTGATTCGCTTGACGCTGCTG | 3170 a.u.
GAAAGCAAAAGGCAGTGCGTGATAATGTTTCTATAGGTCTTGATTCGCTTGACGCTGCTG | 660 a.u.
CTACGCAACTTAAGCCACACCACGTAATTCTTGTTCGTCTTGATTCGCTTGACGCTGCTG | 536 a.u.
GAAGGAAGGGCTTTTGAGCAGGTGAATAGAAGGTAGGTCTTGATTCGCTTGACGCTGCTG | 614 a.u.
CTATTCCACCTTTGTCAGCTGTTCTGTTCCTATTTCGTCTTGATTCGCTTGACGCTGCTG | 687 a.u.
CTAATATATATGACGAATGTGACCAACATAAGTTTCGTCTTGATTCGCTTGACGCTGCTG | 678 a.u.
CTATGGGTAATGCACGTGTTGATAATTACATCGTTCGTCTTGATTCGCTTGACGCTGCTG | 8980 a.u.
CTATGGTATATGCTGCACGTGTAGTCTAATGTTTTCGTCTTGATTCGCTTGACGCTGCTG | 8180 a.u.
CTATAGTAACTACGTAAATCACCTGCTACCTCTTTCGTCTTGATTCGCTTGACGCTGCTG | 1270 a.u.
GAATTGGCTTGATCACATGACACGTCGACGATATAGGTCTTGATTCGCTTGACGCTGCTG | 10100 a.u.
CTAAATCTTGCCTTCATCACCATTATTGAATTATTCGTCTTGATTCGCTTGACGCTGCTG | 563 a.u.
GAACTCAGTAGAATACACGTCACAGAAAGCTAGTAGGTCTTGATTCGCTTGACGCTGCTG | 841 a.u.
GAAGATTCAAATAGTCACGTGATCTCTTTTAGATAGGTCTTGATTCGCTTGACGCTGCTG | 61200 a.u.
CTAGCGGCCTCTGTACACCTCACGCTAAATAGCTTCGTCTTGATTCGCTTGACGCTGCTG | 554 a.u.
GAATTTAGCTGCCCCCACGTTATCTCTTCTTTTTAGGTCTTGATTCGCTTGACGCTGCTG | 602 a.u.
CTAAACCGCAGACATGATGTCCTCTTCTTTCAATTCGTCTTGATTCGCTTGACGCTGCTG | 509 a.u.
CCTAACTACTATAGGCACGAGAAATAGCTTCGTACAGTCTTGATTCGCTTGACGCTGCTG | 552 a.u.
CTAGAGCAATTGCATCAGTTGGCCTTAGCTCAATTCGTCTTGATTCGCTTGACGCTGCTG | 458 a.u.

Excerpt of the above (set 3):
Sequence | E-score
AATAGTGT | 0.246
GGTCATTA | 0.1
AATCTACC | 0.127
AAGTAGGA | 0.0636
GTGGGCGA | -0.0567
